Measurements of several laboratories.
Each numbered part is a random draw from the data of one study; scales do not carry over between parts. Changes are numbered by the printed parent chain.

Block 1
Target: CCNF, cyclin fold, Cln2 fusion (human)
Method: yeast growth competition, sequencing
Matrix: yeast
Setting: strong parent motif
Relative to: not given
Direction: higher = stronger binding
Quantity: normalised enrichment score
Starting sequence: PKMYT1 docking peptide (human); SFEPRNLLSLFED
SFEPRNLTSLFED [L8T]: -0.00477
SPEPRNLLSLFED [F2P]: -0.499
SFEPRNKLSLFED [L7K]: -0.808
SFEPPNLLSLFED [R5P]: -0.621
SWEPRNLLSLFED [F2W]: 0.0235
MFEPRNLLSLFED [S1M]: 2.64
SFEPRNLLSLSED [F11S]: -0.978
SFEPVNLLSLFED [R5V]: -0.487
SSEPRNLLSLFED [F2S]: 0.523
SFEPRNLLSLKED [F11K]: -0.0301
SFEPCNLLSLFED [R5C]: -0.347
SFEPRNLLSLFEG [D13G]: 2.04
SFEPRNLLSSFED [L10S]: -0.69
SFEPRNLLSLFEV [D13V]: 1.44
VFEPRNLLSLFED [S1V]: 1.94
SFGPRNLLSLFED [E3G]: 1.21
SFEPRNYLSLFED [L7Y]: -1.13
AFEPRNLLSLFED [S1A]: 1.94

Block 2
Target: Interferon regulatory factor 3, full length, phosphomimetic (IRF3, Homo sapiens, UniProt Q14653, residues 1-427, S386D/S396D/S398D/S402D/T404D/S405D)
Method: protein-binding microarray
Molecule type: double-stranded DNA, one strand shown
Matrix: in vitro
Tested at: 2540 nM top
Setting: 60-bp whole probe
Together with: salmon DNA 0.4 mg/ml
Relative to: random background probes
Direction: higher = stronger binding
Quantity: fitted relative affinity
Shared flanks, not repeated: GCCTAGCAC … GTCTTGATTCGCTTGACGCTGCTG
Construct (chain): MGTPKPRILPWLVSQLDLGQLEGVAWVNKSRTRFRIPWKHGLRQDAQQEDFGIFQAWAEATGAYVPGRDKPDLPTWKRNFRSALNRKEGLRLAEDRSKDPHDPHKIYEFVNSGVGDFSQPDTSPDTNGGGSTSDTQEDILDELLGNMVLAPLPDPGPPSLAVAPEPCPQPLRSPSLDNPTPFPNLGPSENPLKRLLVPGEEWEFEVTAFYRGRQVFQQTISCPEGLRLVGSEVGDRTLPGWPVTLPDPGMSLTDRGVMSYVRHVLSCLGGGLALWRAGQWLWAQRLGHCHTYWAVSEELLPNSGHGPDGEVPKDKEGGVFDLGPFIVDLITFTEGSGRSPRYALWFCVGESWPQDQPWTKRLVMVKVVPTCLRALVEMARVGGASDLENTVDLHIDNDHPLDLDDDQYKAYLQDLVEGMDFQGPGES
TAATTTTCATTTTCCAAATGGTGCTAG: 5.65 z-score
TCATTTTTTTAATTGAGACTGTGCTAG: 1.1 z-score
GTCACTCTCAGAATCTCTCAGTGCTAG: 0.876 z-score
TTAGGTATCGGTATCGGTGAGTGCTAG: 4.54 z-score
AGTGGTATAGCACTAAGGGAGTGCTAG: -0.559 z-score
GACGGGATCGACTATCGGGACGTGCTA: -0.123 z-score
GACGGTGTCCTTATCCTGACGTGCTAG: 2.52 z-score
TTAGAACTGAGGTATCGATTAGTGCTA: 0.0232 z-score
TTAGGTTTCGGGACTTGGTTAGTGCTA: 3.78 z-score
GACGATATCAGTATCGAGACGTGCTAG: 1.28 z-score
TCCTGTATGGATGTGTTTTAGTGCTAG: -0.11 z-score
TCAAAGCTCCTATCTTATACTGTGCTA: 0.746 z-score
TTAGATATCGGGTATCGAATAGTGCTA: 0.348 z-score
TCACCTATTTATATGAGACTGTGCTAG: 1.59 z-score
ATTTAGTATTACCTATTTCTGTGCTAG: 1.49 z-score
TTAGGTCTCGTACTGGGTTAGTGCTAG: -0.282 z-score
TGTCTTCCCCATCTTGTTCCGTGCTAG: 1.55 z-score
GACGAACTGGGGTATCGGGACGTGCTA: -0.269 z-score
TCACAACTCTGTTTTCGACTGTGCTAG: 1.03 z-score
GACGATATTGGGTTTCGAGACGTGCTA: 0.892 z-score
GACGGTTTACTACTGCTGACGTGCTAG: 1.15 z-score
CTCTACATGGGTATAGAGTAGTGCTAG: -0.307 z-score
TTAGGTATCGGACTGCGTTAGTGCTAG: 1.22 z-score
TTAGGTAGCGGTATCGGTTAGTGCTAG: 2.07 z-score
GACGGACTACTACTGCTGACGTGCTAG: -0.314 z-score

Block 3
Target: DBP, bZIP domain (human)
Method: DHFR protein complementation
Matrix: yeast
Setting: single substitutions, most at no-binding floor
Relative to: wild-type JUN-FOS pair
Direction: higher = stronger binding
Quantity: binding fitness
Starting sequence: JUN, bZIP domain (human); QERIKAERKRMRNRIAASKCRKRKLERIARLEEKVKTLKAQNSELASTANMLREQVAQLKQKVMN; partner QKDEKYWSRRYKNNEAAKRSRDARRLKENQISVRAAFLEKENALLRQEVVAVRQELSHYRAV
V56L: -1.51 natural log
M51D: -1.48 natural log
N42Q: -1.49 natural log
V35S: -1.56 natural log
T37W: -1.25 natural log
L31D: -1.54 natural log
L45Y: -1.41 natural log
L52F: -1.47 natural log
T48R: -1.49 natural log
E54W: -1.5 natural log
L45A: -1.57 natural log
A49W: -1.51 natural log
L31K: -1.49 natural log
R30K: -1.53 natural log

Block 4
Target: RING finger protein unkempt homolog, zinc fingers 1-6, GST-SBP tag (UNK, Homo sapiens, UniProt Q9C0B0, residues 30-357)
UniProt Q9C0B0, sequence (30-357, looked up): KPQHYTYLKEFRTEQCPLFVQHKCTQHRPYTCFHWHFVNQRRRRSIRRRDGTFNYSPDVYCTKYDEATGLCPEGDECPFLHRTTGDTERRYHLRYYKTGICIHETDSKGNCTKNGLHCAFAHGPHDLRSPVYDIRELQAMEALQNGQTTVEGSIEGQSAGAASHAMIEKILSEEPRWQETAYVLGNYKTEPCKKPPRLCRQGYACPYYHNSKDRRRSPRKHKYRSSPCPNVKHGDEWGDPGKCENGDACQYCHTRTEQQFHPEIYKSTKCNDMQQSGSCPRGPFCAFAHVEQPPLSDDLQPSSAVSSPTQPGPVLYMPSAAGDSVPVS
Method: RNA Bind-n-Seq
Molecule type: RNA
Matrix: in vitro
Tested at: not given
Setting: RNA with constant flanks, human and mouse sites, ends assumed
Relative to: input RNA pool
Direction: higher = stronger binding
Quantity: bound/input enrichment
Shared flanks, not repeated: GGGAGUUCUACAGUCCGACGAUC … CAACAGAGGAUUGAGCAUCA
CCGACUGUGGAGGAAAAAUGGAGGCUGCUUCCAGCAUUUUUAAAGGUUAAAGGCCUGGUGAAACAGCACAUAGACUCCUUUAACUAUUUCAUUAAUGUAGAGAUAAAGAAGAUAAUGAAA: 2.44 ratio
AGAAUGGAAUCCUGACAAUGAUACUGGACACACAAUGGGUGAUCCAUUCAUGCUGCAGCAGUCUACAAACCCAGCACCAGGGAUUCUGGGACCGCCGCCUCCUUCAUUUCAUCUUGGAGG: 0.173 ratio
GAACCAAUUAUCCCUCGAGGUGCCAGGCAAGGCCCCAGCCAACUCAAGAGAACCUGCAGCAUCUUUGCAUAUGAAGACAUCAAGGAGGUGCAUAAAAGGAGAUAUCUCCUCCAGCCUAUC: 0.227 ratio
AUCUUCCUCGUUUCCUCCACCCAAUUCUCAUCUCCUUUAUUAAUGCAGAUCCCAGAUAUAUUUUAUCAAGAAAUUUUGUAGCAUAUAUUUGUGUUGUUUUAUUCGUGGUCAUAGUUGCUU: 0.653 ratio
GUAGUUGGAGGGUACUUCGGCAUUCAGCGCUGCAAGACUUUGGACUGUUACGACCCAACUUUAGAUGUGUGGAACAGCAUAACCACUGUUCCCUACUCUCUGAUCCCUACUGCAUUCGUC: 0.108 ratio
UGAGGUUUGGCAGAGUGCUGUUGUCCAUCUUGUUGGCCUGUCUGUGAGUUUCGAAUGUGGAUAGACAGAGGGAAUCUGAGUGCAGUUCUACUUGGAAAACCAUCUCUCCCCAGAGUAGGA: 0.397 ratio
GCGGAUCCGGGCCUUUCCGAUGACCAUGGAUGAAAAAUAUGUAAACAGCAUUUGGGACCUUCUGAAAAAUGCAAUUCAAGAAAUCCAGCGUAAGAAUAACAGUGGUCUUAGUUUUGAGGA: 0.731 ratio
GAGUCGAGCAAACUUGAAACAAUUCGUUAUCUUGCAGCCUCAGUGUUCACUUGCUUGGCGAUAGCAUUGGGGUUUUAUAGGUUCUGGAAGGAGAACUGACGAUGAUGCUGCCGCUGCUGC: 0.15 ratio
AUGGAGAGAAAAGAUUUACUGAAAGCAAAUGUGAAAAUCUUCAAAUCCCAGGGUGCAGCCUUAGAUAAAUACGCCAAGAAGUCAGUUAAGGUUAUUGUUGUGGGUAAUCCAGCCAAUACC: 0.361 ratio
CCUCGUGCUGCCACAGUUGUUGCUCGUGGCCCCUUGAAGUGCGUUAAGCUGGACCGACCUAGAUUUGAACGUGUUCUUGGCCCAUGCUCAGACAUCCUCAAACGAAACAUCCAGCAGUAC: 0.192 ratio
ACCUUUUCAUUUUUAUUUUUUCUUUUCUCAACCAUUACGGUUUAUCUUUUUUUAAUGCAGAUAGUUAAAAUUUCACUGCCAGGUUUCUUCUGCCCACCCAAAAGAUCCAGUCUAUAAUUA: 9.75 ratio

For quick reference, copied from above (block 2):
TCCTGTATGGATGTGTTTTAGTGCTAG: -0.11 z-score
TCAAAGCTCCTATCTTATACTGTGCTA: 0.746 z-score
TTAGATATCGGGTATCGAATAGTGCTA: 0.348 z-score
TCACCTATTTATATGAGACTGTGCTAG: 1.59 z-score
ATTTAGTATTACCTATTTCTGTGCTAG: 1.49 z-score
TTAGGTCTCGTACTGGGTTAGTGCTAG: -0.282 z-score
TGTCTTCCCCATCTTGTTCCGTGCTAG: 1.55 z-score
